Assay results of several laboratories.
Every numbered part comes from another study and shows a few of its results, in no order.
UniProt P54762, sequence (whole entry, looked up): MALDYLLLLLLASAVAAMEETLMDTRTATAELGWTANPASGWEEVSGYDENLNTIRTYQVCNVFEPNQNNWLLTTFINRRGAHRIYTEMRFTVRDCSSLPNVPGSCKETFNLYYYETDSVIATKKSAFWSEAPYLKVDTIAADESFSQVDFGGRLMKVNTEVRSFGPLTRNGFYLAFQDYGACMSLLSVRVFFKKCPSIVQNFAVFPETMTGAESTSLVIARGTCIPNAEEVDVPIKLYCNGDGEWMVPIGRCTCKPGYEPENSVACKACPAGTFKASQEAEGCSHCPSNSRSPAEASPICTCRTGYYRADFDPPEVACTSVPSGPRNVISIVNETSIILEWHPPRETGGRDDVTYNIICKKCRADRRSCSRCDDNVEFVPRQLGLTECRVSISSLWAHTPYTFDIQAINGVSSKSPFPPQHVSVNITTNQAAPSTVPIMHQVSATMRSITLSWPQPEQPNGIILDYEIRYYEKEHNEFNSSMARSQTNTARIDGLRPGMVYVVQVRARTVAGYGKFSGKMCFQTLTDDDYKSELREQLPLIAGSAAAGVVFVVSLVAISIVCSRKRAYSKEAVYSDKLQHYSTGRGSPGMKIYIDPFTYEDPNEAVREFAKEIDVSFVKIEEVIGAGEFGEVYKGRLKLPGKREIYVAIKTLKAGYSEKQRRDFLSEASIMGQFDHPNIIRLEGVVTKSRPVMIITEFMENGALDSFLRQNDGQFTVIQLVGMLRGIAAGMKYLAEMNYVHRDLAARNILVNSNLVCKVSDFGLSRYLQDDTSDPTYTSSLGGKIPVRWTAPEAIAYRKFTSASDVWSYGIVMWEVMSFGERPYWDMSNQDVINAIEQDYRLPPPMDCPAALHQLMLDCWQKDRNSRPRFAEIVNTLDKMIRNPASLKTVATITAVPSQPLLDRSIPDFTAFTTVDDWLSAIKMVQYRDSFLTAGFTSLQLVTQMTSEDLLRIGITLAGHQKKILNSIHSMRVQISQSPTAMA
UniProt P32298, sequence (whole entry, looked up): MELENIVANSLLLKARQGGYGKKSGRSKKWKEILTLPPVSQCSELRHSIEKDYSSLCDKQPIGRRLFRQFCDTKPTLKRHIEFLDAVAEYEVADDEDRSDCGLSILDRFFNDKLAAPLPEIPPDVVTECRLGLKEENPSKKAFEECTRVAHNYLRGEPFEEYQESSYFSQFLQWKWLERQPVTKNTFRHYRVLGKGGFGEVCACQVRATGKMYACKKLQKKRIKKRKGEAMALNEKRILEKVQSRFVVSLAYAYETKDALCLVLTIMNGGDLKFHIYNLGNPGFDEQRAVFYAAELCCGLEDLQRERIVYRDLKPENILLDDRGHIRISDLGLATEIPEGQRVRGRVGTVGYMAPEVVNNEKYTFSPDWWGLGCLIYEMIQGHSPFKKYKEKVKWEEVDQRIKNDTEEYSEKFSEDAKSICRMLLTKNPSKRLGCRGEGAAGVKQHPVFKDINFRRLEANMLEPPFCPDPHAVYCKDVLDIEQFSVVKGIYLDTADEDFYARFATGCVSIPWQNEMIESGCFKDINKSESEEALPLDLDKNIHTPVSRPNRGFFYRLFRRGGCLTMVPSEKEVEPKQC
UniProt P49761, sequence (whole entry, looked up): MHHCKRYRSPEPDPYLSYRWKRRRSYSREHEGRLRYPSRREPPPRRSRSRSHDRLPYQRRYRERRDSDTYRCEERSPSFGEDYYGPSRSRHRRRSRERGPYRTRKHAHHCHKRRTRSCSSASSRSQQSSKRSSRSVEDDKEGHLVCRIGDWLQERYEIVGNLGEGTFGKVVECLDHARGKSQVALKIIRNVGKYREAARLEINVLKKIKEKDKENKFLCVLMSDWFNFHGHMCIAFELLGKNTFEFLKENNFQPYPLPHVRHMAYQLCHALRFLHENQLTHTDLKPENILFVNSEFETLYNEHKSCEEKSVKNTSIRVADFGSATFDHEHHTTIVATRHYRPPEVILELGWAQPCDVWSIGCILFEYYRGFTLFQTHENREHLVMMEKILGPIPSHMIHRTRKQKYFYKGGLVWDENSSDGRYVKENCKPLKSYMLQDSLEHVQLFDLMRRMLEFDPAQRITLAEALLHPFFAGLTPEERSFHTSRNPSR
UniProt Q15208, sequence (whole entry, looked up): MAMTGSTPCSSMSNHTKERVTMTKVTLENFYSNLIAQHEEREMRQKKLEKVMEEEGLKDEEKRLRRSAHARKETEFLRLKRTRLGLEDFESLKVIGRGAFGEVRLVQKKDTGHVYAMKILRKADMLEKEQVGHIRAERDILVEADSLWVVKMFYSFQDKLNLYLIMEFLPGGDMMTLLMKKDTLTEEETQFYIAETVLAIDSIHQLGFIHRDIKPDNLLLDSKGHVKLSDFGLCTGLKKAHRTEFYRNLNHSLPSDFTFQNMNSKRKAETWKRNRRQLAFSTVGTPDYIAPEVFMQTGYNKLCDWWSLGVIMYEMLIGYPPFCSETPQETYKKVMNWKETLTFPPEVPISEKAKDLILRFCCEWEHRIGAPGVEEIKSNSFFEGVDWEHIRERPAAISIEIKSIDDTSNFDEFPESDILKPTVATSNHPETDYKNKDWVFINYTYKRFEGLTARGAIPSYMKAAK
UniProt P00519, sequence (whole entry, looked up): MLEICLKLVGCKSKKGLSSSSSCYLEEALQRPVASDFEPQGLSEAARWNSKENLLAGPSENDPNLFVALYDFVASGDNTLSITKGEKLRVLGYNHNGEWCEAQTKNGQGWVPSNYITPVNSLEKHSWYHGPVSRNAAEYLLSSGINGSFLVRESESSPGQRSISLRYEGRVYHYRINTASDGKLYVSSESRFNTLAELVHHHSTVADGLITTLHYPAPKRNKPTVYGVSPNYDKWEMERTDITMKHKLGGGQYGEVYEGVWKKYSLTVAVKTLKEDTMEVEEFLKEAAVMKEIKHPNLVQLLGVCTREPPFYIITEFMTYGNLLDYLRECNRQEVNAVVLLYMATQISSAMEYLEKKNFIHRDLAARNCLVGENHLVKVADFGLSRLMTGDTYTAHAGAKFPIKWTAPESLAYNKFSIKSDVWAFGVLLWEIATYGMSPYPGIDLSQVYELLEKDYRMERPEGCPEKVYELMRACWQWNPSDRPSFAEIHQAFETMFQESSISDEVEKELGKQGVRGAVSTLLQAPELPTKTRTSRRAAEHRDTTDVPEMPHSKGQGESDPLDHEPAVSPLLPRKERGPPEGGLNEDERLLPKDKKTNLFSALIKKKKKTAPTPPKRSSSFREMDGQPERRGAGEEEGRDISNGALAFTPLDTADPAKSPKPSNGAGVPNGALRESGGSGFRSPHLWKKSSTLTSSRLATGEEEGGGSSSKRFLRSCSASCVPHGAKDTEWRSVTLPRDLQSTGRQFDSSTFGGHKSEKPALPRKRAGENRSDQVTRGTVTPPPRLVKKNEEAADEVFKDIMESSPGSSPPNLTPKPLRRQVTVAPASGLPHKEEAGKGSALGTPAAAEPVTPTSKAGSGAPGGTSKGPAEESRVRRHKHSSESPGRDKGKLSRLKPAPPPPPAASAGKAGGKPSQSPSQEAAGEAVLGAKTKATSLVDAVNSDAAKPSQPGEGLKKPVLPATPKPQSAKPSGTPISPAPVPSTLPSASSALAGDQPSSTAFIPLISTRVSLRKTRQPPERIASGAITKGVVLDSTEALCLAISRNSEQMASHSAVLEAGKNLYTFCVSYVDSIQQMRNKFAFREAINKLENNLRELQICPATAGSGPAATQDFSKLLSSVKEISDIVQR
UniProt Q15759, sequence (whole entry, looked up): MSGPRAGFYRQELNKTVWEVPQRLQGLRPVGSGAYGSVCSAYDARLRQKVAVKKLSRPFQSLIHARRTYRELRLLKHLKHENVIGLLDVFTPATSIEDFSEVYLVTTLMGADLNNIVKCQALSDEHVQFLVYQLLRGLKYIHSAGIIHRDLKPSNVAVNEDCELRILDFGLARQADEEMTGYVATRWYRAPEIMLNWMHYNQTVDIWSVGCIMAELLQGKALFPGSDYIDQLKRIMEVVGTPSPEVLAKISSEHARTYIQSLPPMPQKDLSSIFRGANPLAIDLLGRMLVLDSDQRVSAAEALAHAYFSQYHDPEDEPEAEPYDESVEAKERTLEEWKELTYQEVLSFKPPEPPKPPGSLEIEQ
UniProt Q7KZI7, sequence (whole entry, looked up): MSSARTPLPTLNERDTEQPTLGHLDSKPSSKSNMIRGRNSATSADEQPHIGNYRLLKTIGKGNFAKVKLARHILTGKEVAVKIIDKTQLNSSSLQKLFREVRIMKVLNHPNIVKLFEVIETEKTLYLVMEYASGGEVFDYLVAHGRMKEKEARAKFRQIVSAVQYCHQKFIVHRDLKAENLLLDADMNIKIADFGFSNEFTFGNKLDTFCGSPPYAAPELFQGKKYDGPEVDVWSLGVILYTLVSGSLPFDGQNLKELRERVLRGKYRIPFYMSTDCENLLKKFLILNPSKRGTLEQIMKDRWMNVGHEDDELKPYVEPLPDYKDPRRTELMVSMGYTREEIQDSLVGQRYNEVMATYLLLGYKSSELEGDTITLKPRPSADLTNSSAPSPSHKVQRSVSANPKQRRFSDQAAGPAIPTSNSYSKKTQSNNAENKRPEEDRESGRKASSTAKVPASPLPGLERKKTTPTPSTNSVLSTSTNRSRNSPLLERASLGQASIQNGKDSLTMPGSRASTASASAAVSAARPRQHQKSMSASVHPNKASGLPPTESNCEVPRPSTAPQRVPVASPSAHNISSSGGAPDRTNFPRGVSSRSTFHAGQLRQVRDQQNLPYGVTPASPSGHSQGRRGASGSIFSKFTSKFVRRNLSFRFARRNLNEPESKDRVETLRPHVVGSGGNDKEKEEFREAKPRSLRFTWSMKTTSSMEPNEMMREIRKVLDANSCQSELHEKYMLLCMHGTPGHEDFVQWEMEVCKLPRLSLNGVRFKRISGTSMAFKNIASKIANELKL

Study 1 — effect on: cell-free assay; method: competition with immobilised ligand; concentration: 1 µM
SMILES: O=C1CCc2cc(Nc3cc(OC4CCOCC4)c([N+](=O)[O-])cc3Cl)ccc2N1
target | remaining binding
STK38 (Homo sapiens, UniProt Q15208) | 88%
YES1 (Homo sapiens, UniProt P07947) | 96%
EPHB1 (Homo sapiens, UniProt P54762) | 83%
Tyrosine-protein kinase ABL1, non-phosphorylated (ABL1, Homo sapiens, UniProt P00519) | 98%
MAP3K11 (Homo sapiens, UniProt Q16584) | 100%

Study 2 — organism: Sarcocystis neurona; effect on: parasite growth; concentration: 10 µM; time: 96 h; notes: first screen; reference: untreated
Structure (SMILES) | log2 fold change
CN1CCC(=C2c3ccccc3C=Cc3ccccc32)CC1 | -0.33
Nc1cc(N2CCCCC2)nc(N)[n+]1[O-] | 0.31
Clc1ccccc1C(c1ccccc1)(c1ccccc1)n1ccnc1 | -1.14
Nc1ccc(S(=O)(=O)c2ccc(N)cc2)cc1 | 0.28
COc1cc(C(=O)NC2CCCNC2)cc(OC)c1OC (stereo not drawn) | 0.29

Study 3 — SMILES: Cc1cc(Nc2nc(-c3ccccc3)nc3ccccc23)n[nH]1; effect on: enzyme activity; action: inhibitor; concentration: 0.5 µM; reference: control
target | remaining activity [%]
CLK3 (Homo sapiens, UniProt P49761) | 33.8
MARK2 (Homo sapiens, UniProt Q7KZI7) | 89.6
MAPK11 (Homo sapiens, UniProt Q15759) | 96.8
Cyclin-dependent kinase 9, with cyclin K (CDK9, Homo sapiens, UniProt P50750) | 89.8
PNCK (Homo sapiens, UniProt Q6P2M8) | 102
AKT2 (Homo sapiens, UniProt P31751) | 127
Cyclin-dependent kinase 1, with cyclin A (CDK1, Homo sapiens, UniProt P06493) | 95
CLK4 (Homo sapiens, UniProt Q9HAZ1) | 34.3
MAPK1 (Homo sapiens, UniProt P28482) | 89.3
NEK3 (Homo sapiens, UniProt P51956) | 101
GRK4 (Homo sapiens, UniProt P32298) | 92.1
PLK3 (Homo sapiens, UniProt Q9H4B4) | 88.3
TXK (Homo sapiens, UniProt P42681) | 45.3

Study 4 — cell line: A-375; concentration: 100 µM; time: 36 h
Structure (SMILES) | viability [%]
C[C@@H](c1nc(-c2ccc(C#N)cc2)cs1)[C@](O)(Cn1cncn1)c1cc(F)ccc1F | 21.8
CCn1cc(C(=O)O)c(=O)c2cc3c(cc21)OCO3 | 106
COc1cc(NS(=O)(=O)c2ccc(N)cc2)ncn1 | 118
CCN(CC)CCNC(=O)c1ccc(NC(C)=O)cc1 | 115
c1ccc(Cc2nc3ccccc3[nH]2)cc1 | 73.7
CCOC(=O)CCC(=O)O[C@H]1[C@H](O[C@@H]2[C@@H](C)[C@H](O[C@H]3C[C@@](C)(OC)[C@@H](O)[C@H](C)O3)[C@@H](C)C(=O)O[C@H](CC)[C@@](C)(O)[C@H](O)[C@@H](C)C(=O)[C@H](C)C[C@@]2(C)O)O[C@H](C)C[C@@H]1N(C)C | 78.3
Nc1nc(F)nc2c1ncn2[C@@H]1O[C@H](COP(=O)(O)O)[C@@H](O)[C@@H]1O | 32.2
